Assay results collected from several papers.
Protocols differ between the studies behind these lines. Values joined by “and” are separate records of one study, mostly repeats; a detail may differ. ± marks the error that the study gave.
TDP1: Tyrosyl-DNA phosphodiesterase 1 (TDP1, Homo sapiens, UniProt Q9NUW8)
Sequence of UniProt Q9NUW8 (whole entry, looked up): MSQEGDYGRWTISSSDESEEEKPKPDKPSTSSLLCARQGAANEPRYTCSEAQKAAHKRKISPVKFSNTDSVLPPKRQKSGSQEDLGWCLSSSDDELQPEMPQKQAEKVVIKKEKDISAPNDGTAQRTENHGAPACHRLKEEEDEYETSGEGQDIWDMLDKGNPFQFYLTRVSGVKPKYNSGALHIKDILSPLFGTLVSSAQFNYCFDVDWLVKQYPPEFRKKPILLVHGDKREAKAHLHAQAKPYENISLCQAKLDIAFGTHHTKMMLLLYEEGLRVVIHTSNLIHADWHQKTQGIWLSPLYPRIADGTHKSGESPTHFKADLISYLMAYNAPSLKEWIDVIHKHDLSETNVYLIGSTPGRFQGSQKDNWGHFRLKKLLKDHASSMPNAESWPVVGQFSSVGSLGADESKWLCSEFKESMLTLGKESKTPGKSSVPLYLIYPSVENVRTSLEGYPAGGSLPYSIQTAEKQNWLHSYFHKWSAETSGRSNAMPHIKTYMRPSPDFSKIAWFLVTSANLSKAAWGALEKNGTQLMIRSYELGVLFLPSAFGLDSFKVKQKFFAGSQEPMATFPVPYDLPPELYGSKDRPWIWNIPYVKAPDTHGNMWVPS
Sequence of UniProt P0A7A9 (whole entry, looked up): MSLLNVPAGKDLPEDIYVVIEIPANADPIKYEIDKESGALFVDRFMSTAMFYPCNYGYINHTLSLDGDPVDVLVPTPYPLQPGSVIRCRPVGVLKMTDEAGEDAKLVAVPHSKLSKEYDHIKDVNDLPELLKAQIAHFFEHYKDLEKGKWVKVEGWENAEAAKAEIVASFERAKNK

COc1cc(C2CC(Nc3ccc(-c4ccc(NC5=NOC(c6ccc(O)c(OC)c6)C5)cc4)cc3)=NO2)ccc1O (centres unmarked)  inhibition (carrageenan paw oedema; albino rat; oral, 50 mg/kg, 3 h): 35.5%
CC(C)=CCC[C@]1(C)[C@@H](CC=C(C)C)C[C@@]2(CC=C(C)C)C(=O)[C@]1(C(=O)C(C)C)C(=O)C(CC=C(C)C)=C2O  body surface temperature (infrared imaging; C57BL/6J mice, diet-induced obese; oral, 20 mg/kg, added: cold exposure 4 °C for 5 h; baseline: vehicle): increased
CC(C)=CCc1cc(C(=O)/C=C/c2ccc(O)cc2)c(O)cc1O  Vmax (phase I metabolism, substrate; monkey liver microsomes): 126 ± 14.7 pmol/min/mg
COc1ccc(C(=O)CCc2cc(C(CCc3ccc(O)cc3OC)c3ccc(O)cc3)c(O)cc2OC)cc1 (racemic)  15-HETE level (human blood; 1 µM, added: A23187): 253 ± 69 pg/mL
Cc1cccc(C)c1CNc1cc(C(=O)N2CCC2)cn2c(C)c(C)nc12  inhibition (indomethacin-induced gastric lesions; rat; oral, 2 mg/kg; baseline: vehicle): 91%
COc1cc(O)ccc1CCC(c1ccc(O)cc1)c1cc2c(c(C)c1O)OC(c1ccc(O)cc1)CC2 (mixture of isomers)  amount (item: 5-HEPE; human whole blood; 0.3 µM, added: Escherichia coli): 105 ± 32 pg/mL blood
O=C(O)c1ccc(Nc2c(-c3ccccc3)nc3ccc(CON=Cc4cc(-c5ccccc5)no4)cn23)cc1  inhibition (TDP1; enzyme activity, inhibitor; 100 µM, unpurified compound): 113%
CCC(CC)n1c(Cc2cccs2)nc2cc(C(=O)N[C@@H](CC(=O)O)c3ccccc3)ccc21  E/A and E/e' ratio (mouse, HFpEF model (HFD plus L-NAME); ip, 20 mg/kg/day, 2 wk): decreased
Nc1nc2cc(CC[C@H]3C[C@@H](n4ccc5c(N)ncnc54)[C@H](O)[C@@H]3O)ccc2cc1Br  tumour volume (NCI-H520 xenograft, mouse; 3.0 mg/kg/day, day 27): 94 ± 8 mm3
CN1CCC[C@]1(C)/C=C/S(=O)(=O)NC(=O)Nc1c2c(cc3c1CCC3)CCC2  IL-1β inhibition (human, whole blood ex vivo; 400 mg single dose, 6 h, single ascending dose, added: LPS and ATP): 99.5%
Oc1ccc(C2CC(Nc3ccc(-c4ccc(NC5=NOC(c6ccc(O)cc6)C5)cc4)cc3)=NO2)cc1 (centres unmarked)  inhibition (carrageenan paw oedema; albino rat; oral, 50 mg/kg, 3 h): 24.3%
C#CCOc1ccc(-c2nncnn2)cc1  second order rate constant (1,4-dioxane; 25 °C, added: TCO): 72 ± 5 M⁻¹ s⁻¹
CCCCCc1ccc(S(=O)(=O)N2CC2C(=O)OC)cc1 (centres unmarked)  tumour volume (mouse, Lewis lung carcinoma; intraperitoneal, 15 mg/kg, 16 doses, day 10): 201 mm3
COCCOCCOCCNC(=O)Cc1cc(CC(=O)N[C@H]2C[C@H]3C(=O)Nc4cc(OCCOCCOCCOC)cc(n4)C(=O)N4CCC[C@H]4C(=O)Nc4cc(OCCOCCOCCOC)cc(n4)C(=O)N4CCC[C@H]4C(=O)Nc4cc(OCCOCCOCCOC)cc(n4)C(=O)N3C2)cc(CC(=O)N[C@H]2C[C@H]3C(=O)Nc4cc(OCCOCCOCCOC)cc(n4)C(=O)N4CCC[C@H]4C(=O)Nc4cc(OCCOCCOCCOC)cc(n4)C(=O)N4CCC[C@H]4C(=O)Nc4cc(OCCOCCOCCOC)cc(n4)C(=O)N3C2)c1  TΔS (anion binding, ITC; water/acetonitrile 95 vol% (98.2 mol%); 298 K, added: sodium iodide): 3.68 ± 0.0956 kcal/mol
COCC1CN(C2CCN(c3cc(OC)c(Nc4ncc(Br)c(Nc5ccc6c(c5P(C)(C)=O)OCCO6)n4)cc3C)CC2)C1  progressive disease (RECIST 1.1; advanced EGFR-mutant NSCLC patients; 150 mg once daily): 66.7%
COc1ccc(NC(=O)Nc2cc(C(C)(C)C)on2)cc1OC  IC50 (ppa (Escherichia coli, UniProt P0A7A9); inhibitor, counter-screen, coupling enzyme alone): > 30 µM
Cc1cncc(Oc2ccc(C=NOCc3ccc4nc(-c5ccccc5)c(Nc5ccc(C(=O)O)cc5)n4c3)cc2)n1  inhibition (TDP1; enzyme activity, inhibitor; 100 µM, unpurified compound): 111%
O=S(=O)(NCc1ccncc1)c1ccc(C2CCCCC2)cc1  C1q area reduction (immunohistochemistry; CK-p25 mice male, hippocampus; ip, 0.3 mg/kg daily, 2 wk; baseline: vehicle): ~26%
CC(=O)[O-].O.O.O.O.[Mn+2].[O-]c1ccc(Br)cc1C=NCCN1CCOCC1  inhibition (hydroxyl radical scavenging; 80 µM): 14.7%
O=C(OCc1cccc(O)c1O)c1ccc(O)c(CO)c1  body weight (C57BL/6J mice, wild type; dose not given, day 0, aneurysm hypertension model, added: angiotensin II 0.8 mg/kg/d for 14 d): 32.1 ± 2.1 g
COC1CN([C@H]2CC[C@H]([C@@]3(C)Oc4c(Cl)cc(C(=O)NCc5c(SC)cc(C)[nH]c5=O)c(C)c4O3)CC2)C1  log2 fold change (RNA-seq, item: IL15 mouse homolog; mouse, HT-1376 xenograft, whole blood; dose not given; baseline: vehicle): 0.374
CC(C)(C)NCC(SS(=O)(=O)O)c1ccccc1 (centres unmarked)  spleen weight (mouse infected with Schistosoma mansoni; 400 mg/kg, day 42 post-infection dosing once, perfusion day 52 post-infection): 0.53 g and 0.85 g and 0.67 g
CC[C@H](C)[C@@H](C(=O)N[C@@H](CC(C)C)C(=O)N[C@@H](CO)C(=O)N[C@@H](CO)C(=O)N[C@H](C(=O)N[C@@H](CCC(=O)O)C(=O)N[C@H](C(=O)NCC(=O)N[C@@H](CO)C(=O)N[C@@H](CO)C(=O)N[C@H](C(=O)N1CCC[C@H]1C(N)=O)[C@@H](C)O)C(C)C)[C@@H](C)O)N(C)C(=O)[C@H](C)NC(=O)CN(C)C(=O)[C@H](Cc1ccccc1)NC(=O)[C@H](CO)NC(=O)[C@H](CO)NC(=O)[C@H](CCCNC(=N)N)NC(=O)[C@H](CCC(N)=O)NC(=O)[C@H](CC(C)C)NC(=O)[C@H](Cc1ccccc1)NC(=O)[C@H](Cc1c[nH]cn1)NC(=O)[C@H](C)NC(=O)[C@H](CC(C)C)NC(=O)[C@H](CCCNC(=N)N)NC(=O)[C@H](CCC(=O)O)NC(=O)[C@@H](NC(=O)[C@H](C)NC(=O)[C@@H]1CSSC[C@H](NC(=O)[C@H](CCCNC(=N)N)NC(=O)CC[C@H](NC(=O)CCCCCCCCCCCCCCCCCCC(=O)O)C(=O)O)C(=O)NCC(=O)N[C@@H]([C@@H](C)O)C(=O)N[C@@H](C)C(=O)N[C@@H]([C@@H](C)O)C(=O)N1)[C@@H](C)O  food intake (male Sprague-Dawley rats; subcutaneous, 30 nmol/kg single dose, 24 h; baseline: vehicle): 69.8 ± 2.8%
CC(=O)NCC(=O)N[C@@H](Cc1ccccc1)C(=O)N[C@@H](Cc1ccccc1)C(=O)N[C@@H](Cc1ccc(O)cc1)C(=O)NCC(=O)N[C@@H](Cc1ccc(O)cc1)C(=O)NCC(=O)N[C@@H](CO)C(=O)N[C@@H](CO)C(=O)N[C@@H](CO)C(=O)N[C@@H](CCCNC(=N)N)C(=O)N[C@@H](CCCNC(=N)N)C(=O)N[C@@H](C)C(=O)N1CCC[C@H]1C(=O)N[C@@H](CCC(N)=O)C(=O)N[C@H](C(=O)O)[C@@H](C)O  optimal hair growth concentration (male C57BL/6 mice depilated; topical, 300 µL once daily): 2 µM
COc1ccc(C2CC(Nc3ccc(-c4ccc(NC5=NN(C(C)=O)C(c6ccc(OC)cc6)C5)cc4)cc3)=NN2C(C)=O)cc1 (centres unmarked)  inhibition (carrageenan paw oedema; albino rat; oral, 25 mg/kg, 3 h): 30.3%
CCC(=O)N[C@@H](C)C(=O)OCC(=O)N[C@@H](C)C(=O)O  side-chain scission rate constant (water; pH 2, 50 °C): 0.004 h⁻¹

A few entries again:
CC(C)(C)NCC(SS(=O)(=O)O)c1ccccc1 (centres unmarked)  spleen weight (mouse infected with Schistosoma mansoni; 400 mg/kg, day 42 post-infection dosing once, perfusion day 52 post-infection): 0.53 g and 0.85 g and 0.67 g
CC[C@H](C)[C@@H](C(=O)N[C@@H](CC(C)C)C(=O)N[C@@H](CO)C(=O)N[C@@H](CO)C(=O)N[C@H](C(=O)N[C@@H](CCC(=O)O)C(=O)N[C@H](C(=O)NCC(=O)N[C@@H](CO)C(=O)N[C@@H](CO)C(=O)N[C@H](C(=O)N1CCC[C@H]1C(N)=O)[C@@H](C)O)C(C)C)[C@@H](C)O)N(C)C(=O)[C@H](C)NC(=O)CN(C)C(=O)[C@H](Cc1ccccc1)NC(=O)[C@H](CO)NC(=O)[C@H](CO)NC(=O)[C@H](CCCNC(=N)N)NC(=O)[C@H](CCC(N)=O)NC(=O)[C@H](CC(C)C)NC(=O)[C@H](Cc1ccccc1)NC(=O)[C@H](Cc1c[nH]cn1)NC(=O)[C@H](C)NC(=O)[C@H](CC(C)C)NC(=O)[C@H](CCCNC(=N)N)NC(=O)[C@H](CCC(=O)O)NC(=O)[C@@H](NC(=O)[C@H](C)NC(=O)[C@@H]1CSSC[C@H](NC(=O)[C@H](CCCNC(=N)N)NC(=O)CC[C@H](NC(=O)CCCCCCCCCCCCCCCCCCC(=O)O)C(=O)O)C(=O)NCC(=O)N[C@@H]([C@@H](C)O)C(=O)N[C@@H](C)C(=O)N[C@@H]([C@@H](C)O)C(=O)N1)[C@@H](C)O  food intake (male Sprague-Dawley rats; subcutaneous, 30 nmol/kg single dose, 24 h; baseline: vehicle): 69.8 ± 2.8%
CC(=O)NCC(=O)N[C@@H](Cc1ccccc1)C(=O)N[C@@H](Cc1ccccc1)C(=O)N[C@@H](Cc1ccc(O)cc1)C(=O)NCC(=O)N[C@@H](Cc1ccc(O)cc1)C(=O)NCC(=O)N[C@@H](CO)C(=O)N[C@@H](CO)C(=O)N[C@@H](CO)C(=O)N[C@@H](CCCNC(=N)N)C(=O)N[C@@H](CCCNC(=N)N)C(=O)N[C@@H](C)C(=O)N1CCC[C@H]1C(=O)N[C@@H](CCC(N)=O)C(=O)N[C@H](C(=O)O)[C@@H](C)O  optimal hair growth concentration (male C57BL/6 mice depilated; topical, 300 µL once daily): 2 µM
COc1ccc(C2CC(Nc3ccc(-c4ccc(NC5=NN(C(C)=O)C(c6ccc(OC)cc6)C5)cc4)cc3)=NN2C(C)=O)cc1 (centres unmarked)  inhibition (carrageenan paw oedema; albino rat; oral, 25 mg/kg, 3 h): 30.3%
